Assay results pooled from the literature.
A part holds a random share of what one study measured.

Study 1
Target: Histone acetyltransferase KAT6A, winged helix 2, GST fusion (KAT6A, Homo sapiens, UniProt Q92794, residues 85-181)
Method: protein binding microarray
Molecule type: double-stranded DNA, one strand shown
Sample: in vitro
Concentration: not given
Setting: 8-mer, flanks averaged, mean of 2 arrays, mostly near background
Baseline: not given
Direction: higher = stronger binding
Target sequence (chain): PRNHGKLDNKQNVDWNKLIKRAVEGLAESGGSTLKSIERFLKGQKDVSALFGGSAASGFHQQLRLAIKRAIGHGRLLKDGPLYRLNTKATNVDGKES
For `AATATGCG`, the E-score was -0.109.
`CATCATTA` gave an E-score of 0.0947.
`ATACGTCA` has an E-score of -0.189.
The E-score of `GACAAAGA` is reported as 0.0799.

Study 2
Target: TAR DNA-binding protein 43, full length, His tag (TARDBP, Homo sapiens, UniProt Q13148, residues 1-414)
Method: RNA Bind-n-Seq
Molecule type: RNA
Sample: in vitro
Concentration: 20 nM
Setting: 6-mer, flanks averaged, single round
Added: 150 mM KCl
Baseline: input library
Direction: higher = stronger binding
For `UCCGGU`, “6-mer enrichment (R)” read 0.748.
Under “6-mer enrichment (R)”, `UGGUUC` is recorded as 0.689.
For `GGGAGA`, “6-mer enrichment (R)” read 3.85.
`GUACAG` — result for “6-mer enrichment (R)”: 0.954.

Study 3
Target: Interferon regulatory factor 7, full length, phosphomimetic (IRF7, Homo sapiens, UniProt Q92985, residues 1-503, S471D/S472D/S475D/S476D/S477D/S483D/S484D/S487D)
UniProt Q92985, sequence (whole entry, unmodified, looked up): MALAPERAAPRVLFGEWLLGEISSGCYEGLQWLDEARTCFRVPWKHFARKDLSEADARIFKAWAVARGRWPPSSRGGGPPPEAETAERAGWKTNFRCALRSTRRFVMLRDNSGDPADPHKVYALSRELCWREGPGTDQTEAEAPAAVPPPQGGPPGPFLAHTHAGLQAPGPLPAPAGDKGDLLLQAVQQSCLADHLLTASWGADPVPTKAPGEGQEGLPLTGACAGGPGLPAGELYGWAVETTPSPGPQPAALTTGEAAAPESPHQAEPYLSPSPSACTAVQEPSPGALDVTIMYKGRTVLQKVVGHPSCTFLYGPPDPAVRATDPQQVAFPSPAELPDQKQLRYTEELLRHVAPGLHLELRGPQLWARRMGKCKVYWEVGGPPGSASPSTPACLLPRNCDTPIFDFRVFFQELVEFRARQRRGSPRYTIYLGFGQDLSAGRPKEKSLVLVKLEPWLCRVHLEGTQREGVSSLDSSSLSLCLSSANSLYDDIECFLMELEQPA
Method: protein-binding microarray
Molecule type: double-stranded DNA, one strand shown
Sample: in vitro
Concentration: 2200 nM top
Setting: 60-bp whole probe
Added: salmon DNA 0.4 mg/ml
Baseline: random background probes
Direction: higher = stronger binding
All sequences stand within: GCCTAGCAC … GTCTTGATTCGCTTGACGCTGCTG
`GACGGACTAGGACTGGGGACGTGCTAG` — result for “fitted relative affinity”: -0.552 z-score.
Under “fitted relative affinity”, `TTAGATATCGGGGTTCGATTAGTGCTA` is recorded as 0.376 z-score.
Under “fitted relative affinity”, `TTAGGTCTACTTATCCTTTAGTGCTAG` is recorded as 0.696 z-score.
`TTAGGTCTCGGTATCGCTTAGTGCTAG`: “fitted relative affinity” 0.796 z-score.
For `CTGGCCTGGGGTCTGCAGAGGTGCTAG`, “fitted relative affinity” read -1.52 z-score.

Single results of other studies
For `PhoQ, residues 284 288 289 292 302 303 AGCYAI`, the fold induction was 0.975 (PhoP, residues 12 14 15 18 19 NQAHL (Escherichia coli, UniProt P23836); Sort-seq, item: YFP reporter; E. coli; PhoQ-PhoP variant library, added: 10 µM Mg2+; baseline: high Mg2+ state, higher = stronger signaling).

Excerpt of the above (study 2):
Under “6-mer enrichment (R)”, `UGGUUC` is recorded as 0.689.
For `UCCGGU`, “6-mer enrichment (R)” read 0.748.
